Measured values gathered from unrelated publications.
Method: steady-state kinetics
B1: enzyme R237A (Acetivibrio thermocellus, UniProt A3DJ38); chain MKLTIPELSLVVLIGSSGSGKSTFAKKHFKPTEVISSDFCRGLVSDDENDQTVTGAAFDVLHYIVSKRLQLGKLTVVDATNVQESARKPLIEIAKDYHCFPVAVVFNLPEKVCQERNKNRTDRQVEEYVIRKHTQQLKKSIKGLQREGFRYVYILNSPEEVEEVVFERQPLWNNKKDEHGPFDIIGDIHGCYDELKMLLEKLGYLIEEVEGGVGSGKYRVTHPEGRKVLFLGDLVDAGPKITEVLKLVMGMVKSGIALCVPGNHDVKLLRKLNGRDVQITHGLDRTLEQLAKEPQEFIEEVKAFIDGLVSHYVLDDGKLVVAHAGMKEEFQGRGSGKVREFALYGETTGETDEYGLPVRYDWASDYRGKALVVYGHTPQAEVLKVNNTINIDTGCVFGGKLTAYRYPEREIVDVKALKTYYEPAKPFLPKEDMAERFEARTDNDILDINDVLGKKIITTRLMSSITIHEENSIAALEVMSRFAADPHWLIYLPPTMSPCETSKKEGMLEHPIEAFEYFRTRGVGKVVCEQKHMGSRAVVIVCKDSQVAEKRFGVLDGTAGICYTRTGRHFFDDMQLEAELIDRVRKVLDKSGFWGDFNTDWVCLDCELMPWSAKAQKLLEEQYSAVGISGRVVLDEAVKLLKQASLNKTVSFDVSRQTSGKNADINELLQRFTERSEMMQKYVEAYRKYCWPVNSIDDLKLAPFHILATEGKVHSDKNHIWHMDTIAKYCTQDDSLIMATNHILVDVTDAESVDKGIKWWEDLTASGGEGMVVKPYDFIVKNGRELLQPAVKCRGREYLRIIYGPEYTMDENIERLRNRAVGKKRSLALREFSLGMEALERFVRNEPLYRVHECVFGVLALESEPVDPRL
B2: protein (uncultured bacterium HF130_AEPn_1, UniProt D0E8I5); chain MSLSNSSKVSVLISLLEKSRDLDYIGEAINQLEHSLQCAYFAQRSGADNEMVLAALLHDLGHYCNDTSFEDMGGYGVWQHEKVGADYLRGLGFSERVACLIEGHVAAKRYLVSSKASYLKNLSDASRKTLEYQGGPMDEGERRLFEEREDFKDCLKIRAWDEKGKQTDLKVPGPEHYRKMMEEHLSENQN
B3: CPN1 (Homo sapiens, UniProt P15169); chain VTFRHHRYDDLVRTLYKVQNECPGITRVYSIGRSVEGRHLYVLEFSDHPGIHEPLEPEVKYVGNMHGNEALGRELMLQLSEFLCEEFRNRNQRIVQLIQDTRIHILPSMNPDGYEVAAAQGPNKPGYLVGRNNANGVDLNRNFPDLNTYIYYNEKYGGPNHHLPLPDNWKSQVEPETRAVIRWMHSFNFVLSANLHGGAVVANYPYDKSFEHRVRGVRRTASTPTPDDKLFQKLAKVYSYAHGWMFQGWNCGDYFPDGITNGASWYSLSKGMQDFNYLHTNCFEITLELSCDKFPPEEELQREWLGNREALIQFLEQVHQGIKGMVLDENYNNLANAVISVSGINHDVTSGDHGDYFRLLLPGIYTVSATAPGYDPETVTVTVGPAEPTLVNFHLKRSIPQVSPVRRAPSRRHGVRAKVQPQARKKEMEMRQLQRGPA
B4: protein F432W (Streptomyces toyocaensis, UniProt Q8KLK7); chain MTTVLPPLEDTDGLWAALTEAAASVEKLLATLPEHGARSSAERAEIAAAHDAARALRVRFLDTHADAVYDRLTDHRRVHLRLAELVEAAATAFPGLVPTQQQLAVERSLPQAAKEGHEIDQGIFLRAVLRSPLAGPHLLDAMLRPTPRALELLPEFVRTGEVEMEAVHLERRDGVARLTMCRDDRLNAEDGQQVDDMETAVDLALLDPGVRVGLLRGGVMSHPRYRGKRVFSAGINLKYLSQGGISLVDFLMRRELGYIHKLVRGVLTNDDRPGWWHSPRIEKPWVAAVDGFAIGGGAQLLLVFDRVLASSDAYFSLPAAKEGIIPGAANLRLGRFAGPRVSRQVILEGRRIWAKEPEARLLVDEVVEPDELDAAIERSLTRLDGDAVLANRRMLNLADESPDGFRAYMAEFALMQALRLYGHDVIDKVGRWGGRPPA
B5: enzyme L163H/N249W (Thermobifida fusca, UniProt Q47RK4); chain MTDVYILDAVRTPFGRYGGALSGIRPDDLAAHVLRALAERSPGLDPAAVDDVFFGDANGAGEDNRNVARMAALLAGWPTSVPGVTLNRLCGSGMESVIAANRAIAVGDASLAVAGGVESMSRAPWVLPKPAQGFPTGHETLYSTTLGWRMVNPAMPEQWTVSHGESTEQVAATYGISRAEQDAFALRSHERAARAWAEGVFDAEITQIPGAELERDESIRETSAEKLAALKPAFRPDGTITAGNASPLWDGAAALLIGDAAAAERVGREPLARIVSRGVAAVDPDVFGIGPVQAAEIALRRAGIGWDDLSVVELNEAFAAQSLACLKLWPDLDPEIVNPNGGAIAIGHPLGASGARIVGTLAHELHRRGGGWGLAAICIGVGQGLAVVLHR
B6: xoxF1 (Methylorubrum extorquens, UniProt C5B120); chain NESVLKGVANPAEQVLQTVDYANTRYSKLDQINASNVKNLQVAWTFSTGVLRGHEGSPLVVGNIMYVHTPFPNIVYALDLDQGAKIVWKYEPKQDPSVIPVMCCDTVNRGLAYADGAILLHQADTTLVSLDAKSGKVNWSVKNGDPSKGETNTATVLPVKDKVIVGISGGEFGVQCHVTAYDLKSGKKVWRGYSIGPDDQLIVDPEKTTSLGKPIGKDSSLKTWEGDQWKTGGGCTWGWFSYDPKLDLMYYGSGNPSTWNPKQRPGDNKWSMTIWARNPDTGMAKWVYQMTPHDEWDFDGINEMILTDQKFDGKDRPLLTHFDRNGFGYTLDRATGEVLVAEKFDPVVNWATKVDLDKGSKTYGRPLVVSKYSTEQNGEDVNSKGICPAALGTKDQQPAAFSPKTGLFYVPTNHVCMDYEPFRVTYTPGQPYVGATLSMYPAPGSHGGMGNFIAWDNLQGKIKWSNPEQFSAWGGALATAGDVVFYGTLEGFLKAVDSKTGKELYKFKTPSGIIGNVMTYEHKGKQHVAVLSGVGGWAGIGLAAGLTDPNAGLGAVGGYAALSSYTNLGGQLTVFSLPNN
B7: enzyme (Allochromatium vinosum, UniProt P45370); chain MFPIDIRPDKLTQEMLDYSRKLGQGMENLLNAEAIDTGVSPKQAVYSEDKLVLYRYDRPEGAPEAQPVPLLIVYALVNRPYMTDIQEDRSTIKGLLATGQDVYLIDWGYPDQADRALTLDDYINGYIDRCVDYLREAHGVDKVNLLGICQGGAFSLMYSALHPDKVRNLVTMVTPVDFKTPDNLLSAWVQNVDIDLAVDTMGNIPGELLNWTFLSLKPFSLTGQKYVNMVDLLDDPDKVKNFLRMEKWIFDSPDQAGETFRQFIKDFYQNNGFLNGGVVLGGQEVDLKDITCPVLNIFALQDHLVPPDASRALKGLTSSPDYTELAFPGGHIGIYVSGKAQKEVTPAIGKWLNER
B8: Lxyl-p1-1 A72T/V91S (Lentinula edodes, UniProt G8GLN9); chain YFSGLGLGSERSIFRRDLNSTGDESNSTQWPAPLANGGKSWASAFKKAKSTVTEMTVEELANITSGVIGLCSGVTGAVTRLGIPELCLQDGPIGPRGVHGSSQFPAGLTVAATWDRTLMYARARGMGQEFHDQGVHIALAPVTGGPLGRTPLNGRGWEGTFADPYACGEASYQSVKGLTDAGVATVSKHWIAYEQETSRNLYIEFDGVSQADIQLPISSNVDDLTMHELYMWSFAEAVRAGTNHIMCSYNRINNTHSCNNAKGLNQLLKTELNFQGGVVSDWGGQWDSVLSAENGLDVGMPGEGFLGELGDFWGTTLADLINNGTVSEDLVRDKVVRLLTGYYYLGQDINPPPPFVYNTIGAPTLNATSGYRNVRKPGTAELIKEIGSASVTLLKNTGSLPLKHPQRIAVLGNDATYNVLGPNACGLANSACDIDNLNGTLTTGGGSGSALSPYTITPLEALQKRAIEDNAEIAAVVANSNTTTGAEDAIAALLPDADVTFVFLNRYSEEGADAPDFSLGGDGDNLMDLAVTYSSNVVVVIHTTGVVDIEKWADNPNVTAILVAYLPGQEAGNSLVPVLYGDVAPSGKLPWTWGKSIDDYVPNGVVYTDAYSPQSNFTEGVFIDYRWFDKMGITPRYEFGFGLSYTTFTYSNLIVDHGRWAKDYSSVMETAEPFAEWDGTNSLYDVIFTVFATITNTGNLTGSEVAQLYISIPGDNQPVRQLRGFDKIKDLPVGDSAVVTFPIRRKDVSSWSVVDQLWYVPNGDFLISVGGSSRDLPLNTTWTP

| Molecule | substrate | pH | temperature | notes | added | Km [µM] |
| --- | --- | --- | --- | --- | --- | --- |
| Cj1427c (Campylobacter jejuni, UniProt Q0P8I7) | O=C(O)CCC(=O)C(=O)O | pH 7.4 | 30 °C | apparent |  | 130 |
| plcB (Listeria monocytogenes, UniProt P33378) | CCCCCCC(=O)OC[C@H](COP(=O)([O-])OCC[N+](C)(C)C)OC(=O)CCCCCC | pH 6 | 37 °C |  |  | 200 |
| B1 (enzyme R237A) | Nc1ncnc2c1ncn2[C@@H]1O[C@H](CO)[C@H]2OP(=O)(O)O[C@H]21 | pH 7.5 | 45 °C |  |  | 77000 |
| B2 (protein) | NC[C@H](O)P(=O)(O)O | pH 7 | 25 °C | NaCl 150 mM | O2, Fe(II) 100 µM, ascorbate 100 µM | 63 |
| OXA-48 (Klebsiella pneumoniae, UniProt Q6XEC0) | C[C@@H](O)[C@H]1C(=O)N2C(C(=O)O)=C(S[C@@H]3CN[C@H](C(=O)N(C)C)C3)[C@H](C)[C@H]12 | pH 7.2 | 30 °C |  |  | 6 |
| B3 (CPN1) | C[C@H](NC(=O)[C@H](Cc1ccccc1)NC(=O)[C@H](CCC(N)=O)NC(=O)CNC(=O)[C@@H]1CCCN1C(=O)[C@H](Cc1ccccc1)NC(=O)[C@@H](N)Cc1ccc(O)cc1)C(=O)N[C@@H](Cc1ccccc1)C(=O)N[C@@H](CO)C(=O)N[C@@H](CCCCN)C(=O)O |  | 37 °C |  |  | 171 |
| B4 (protein F432W) | CC(C)(COP(=O)(O)OP(=O)(O)OC[C@H]1O[C@@H](n2cnc3c(N)ncnc32)[C@H](O)[C@@H]1OP(=O)(O)O)[C@@H](O)C(=O)NCCC(=O)NCCSC(=O)Cc1cc(O)cc(O)c1 | pH 7.5 | 24 °C |  | O2 | 1.1 |
| B5 (enzyme L163H/N249W) | CC(C)(COP(=O)(O)OP(=O)(O)OC[C@H]1O[C@@H](n2cnc3c(N)ncnc32)[C@H](O)[C@@H]1OP(=O)(O)O)[C@@H](O)C(=O)NCCC(=O)NCCSC(=O)CCC(=O)O | pH 7.4 | 37 °C |  |  | 1140 |
| B6 (xoxF1) | CO |  | 30 °C |  |  | 22 |
| MilB F17Y (Streptomyces rimofaciens) | Nc1ccn([C@H]2C[C@H](O)[C@@H](COP(=O)(O)O)O2)c(=O)n1 | pH 7.5 | 37 °C |  |  | 1200 |
| B7 (enzyme) | CC(C)(COP(=O)(O)OP(=O)(O)OC[C@H]1O[C@@H](n2cnc3c(N)ncnc32)[C@H](O)[C@@H]1OP(=O)(O)O)[C@@H](O)C(=O)NCCC(=O)NCCSC(=O)C[C@H](O)CN=[N+]=[N-] | pH 7.8 | 30 °C |  |  | 70 |
| B8 (Lxyl-p1-1 A72T/V91S) | [H][C@]12[C@H](OC(=O)c3ccccc3)[C@]3(O)C[C@H](OC(=O)[C@H](O)[C@@H](NC(=O)c4ccccc4)c4ccccc4)C(C)=C([C@@H](O)C(=O)[C@]1(C)[C@@H](O[C@@H]1OC[C@@H](O)[C@H](O)[C@H]1O)C[C@@]1([H])OC[C@@]21OC(C)=O)C3(C)C |  |  |  |  | 300 |

A few entries again:
| Molecule | substrate | pH | temperature | notes | added | Km [µM] |
| --- | --- | --- | --- | --- | --- | --- |
| plcB (Listeria monocytogenes, UniProt P33378) | CCCCCCC(=O)OC[C@H](COP(=O)([O-])OCC[N+](C)(C)C)OC(=O)CCCCCC | pH 6 | 37 °C |  |  | 200 |
